# Measurements pooled from the literature.
# Protocols differ between the studies behind these lines. ± marks the error that the study gave. The star is where a group is joined.
# CNR1: Cannabinoid receptor 1 (CNR1, Homo sapiens, UniProt P21554)
# Ryanodine receptor 1: Ryanodine receptor 1 (Oncorhynchus mykiss, UniProt A0A8C7UX14)
# gdpP residues 84-659: gdpP, residues 84-659 (Bacillus subtilis, UniProt P37484)
Substance,target,assay,test system,conditions,scale,measurement,value
O=[N+]([O-])c1ccc(O[C@H]2O[C@H](CO)[C@H](O)[C@H](O)[C@H]2O)cc1,"lacY (Escherichia coli, UniProt P02920, I32C/N245C)",cytoplasmic cavity opening,DDM,Cu2+ cross-linked,,forward rate constant,64 ± 5 s⁻¹
Nc1ncnc2c1nc(Br)n2[C@@H]1O[C@@H]2COP(O)(=S)O[C@H]2[C@H]1O (stereo partly drawn),"cAMP-dependent protein kinase type II-beta regulatory subunit, holoenzyme with catalytic subunit (Prkar2b, Rattus norvegicus, UniProt P12369, S112A)","PKA holoenzyme activation, activator, fluorescence anisotropy",,,"reference: RIIβ over RIα, higher = RIIβ-selective",selectivity ratio,3.1
CC(C)[C@H](NC(=O)[C@H](C)NC(=O)[C@H](CCC(=O)O)NC(=O)[C@H](CCC(=O)O)NC(=O)[C@@H](N)CO)C(=O)N[C@@H](CO)C(=O)N[C@@H](CCC(=O)O)C(=O)N[C@@H](Cc1ccc(O)cc1)C(=O)N[C@@H](CCC(=O)O)C(=O)N[C@@H](C)C(=O)N[C@@H](CO)C(=O)N[C@@H](CCC(=O)O)C(=O)N[C@@H](CC(=O)O)C(=O)N[C@@H](CC(=O)O)C(=O)N[C@H](C(=O)N[C@@H](CO)C(=O)N[C@@H](CC(=O)O)C(=O)N[C@@H](CCC(=O)O)C(=O)N[C@@H](CO)C(=O)N[C@@H](C)C(=O)N[C@@H](Cc1ccccc1)C(=O)N[C@@H](CO)C(=O)N[C@@H](CCC(=O)O)C(=O)N[C@@H](CC(=O)O)C(=O)N[C@@H](CCC(=O)O)C(=O)N[C@@H](CCC(=O)O)C(=O)O)C(C)C,"HTB1/HTA1, H2B residues 30-130 (Saccharomyces cerevisiae, UniProt P02293+P04911)","binding, ITC",,,reference: wild-type MBD peptide,affinity decrease,6 fold
O=C1Nc2ccc3ncsc3c2/C1=C/Nc1ccc(S(=O)(=O)Nc2ccccn2)cc1,"Putative glycogen synthase kinase (Leishmania major, UniProt Q4QE15, Y102F)","kinase inhibition, inhibitor",,"Y102F mutant, short isoform",reference: wild type over Y102F mutant,sensitivity ratio,> 10 fold
CC(C)(NC(=O)c1nn(Cc2ccc(F)cc2)c2ccccc12)c1cccc(C(N)=O)c1,CNR1,"calcium mobilization, agonist",CHO-K1 expressing Gαq16,,"reference: CP55,940 maximum",Emax,24 ± 1%
O=S(=O)(O)Oc1ccc(-c2ccc(Cl)cc2)cc1,"sulfatase, human liver microsomes",substrate,,"pH 7.4, 37 °C",,Vmax,16.8 ± 3.8 nmol/min/mg
COc1ccc(Oc2ccc(C(=O)N[C@H](CN3CCN(c4cccc(O)c4)[C@@H](C)C3)C(C)C)cc2)cc1,"OPRD1 (Homo sapiens, UniProt P41143)",antagonist,CHO,together with: DPDPE,,Ke,1380 ± 1050 nM
"Ac-QDEVD-pNA (N-acetyl, C-pNA; pNA = O=[N+]([O-])c1ccc(N*)cc1)","Caspase-8 (CASP8, Homo sapiens, UniProt Q14790)","substrate hydrolysis, substrate, colorimetric",,pH 7.5,,kcat/Km,1170 ± 167 M⁻¹ s⁻¹
CC(C)(C)OC(=O)c1ncn2c1[C@@H]1CCCN1C(=O)c1c(Br)cccc1-2,"Gabrg2/Gabra6, with β3 subunit (Rattus norvegicus, UniProt P18508+P30191)","GABA-induced chloride current, two-electrode voltage clamp",Xenopus oocytes,"rat α6β3γ2 receptor, together with: GABA EC3",reference: GABA EC3 alone,Emax,231 ± 13%
[2H]C([2H])([2H])C([2H])([2H])Oc1ccccc1S(=O)(=O)N1CC(c2nc(-c3ccc(F)cc3)no2)C1,"Calcium-activated potassium channel subunit alpha-1, with beta-3 subunit (KCNMA1, Homo sapiens, UniProt Q12791)",,HEK293,30 µM,,activity,inactive
Nc1ncnc2c1ncn2[C@@H]1O[C@H](CSCC[C@H](N)C(=O)O)[C@@H](O)[C@H]1O,"bioB (Escherichia coli, UniProt P12996)","enzyme activity, inhibitor",,"30 min, 37 °C, 25 µM enzyme monomer, together with: 100 µM S-adenosylmethionine, 200 µM dethiobiotin",,concentration for full inhibition,10.6 µM
Cc1cc(Oc2cccc(Cn3ccnc3)c2)cc(C)c1Cl,"CYP51 (Trypanosoma cruzi, UniProt Q7Z1V1)",inhibitor,,"1 h, two-fold inhibitor over enzyme",,substrate conversion,7.5%
C=C1[C@@H](C)[C@H]2[C@H](Cc3ccccc3)NC(=O)[C@]23[C@H](OC(C)=O)/C=C/[C@@](C)(O)C(=O)[C@@H](C)C/C=C/[C@H]3[C@@H]1O,integrin alphaM beta2 (human),"ligand binding, inhibitor, flow cytometry",human neutrophils,"concentration not given, 1 h, 37 °C, integrin clustering inhibitor, together with: Alexa 488-labelled fibrinogen","reference: no inhibitor, lower means less binding",bound fibrinogen fluorescence,476 ± 50 MFI
Clc1ccc(Cl)c(-c2c(Cl)c(Cl)cc(Cl)c2Cl)c1,Ryanodine receptor 1,[3H]ryanodine binding,"rainbow trout, skeletal muscle microsomes",,,EC20,2.21 µM
N[C@@H](Cc1ccc(OP(=O)(O)O)cc1)C(=O)O,"Phospholysine phosphohistidine inorganic pyrophosphate phosphatase (LHPP, Homo sapiens, UniProt Q9H008)","substrate, absorbance",,"100 µM, 90 min, pH 7.8",,substrate hydrolysis,4.81%
C[C@H](NC(=O)c1nn(Cc2ccc(F)cc2)c2ccccc12)c1cccc(C(N)=O)c1,CNR1,"calcium mobilization, agonist",CHO-K1 expressing Gαq16,,"reference: CP55,940 maximum",Emax,85 ± 6%
Nc1ncnc2c1ncn2[C@@H]1O[C@@H]2COP(=O)(O)O[C@H]3[C@@H](F)[C@H](n4cnc5c(N)ncnc54)O[C@@H]3COP(=O)(O)O[C@H]2[C@H]1O,gdpP residues 84-659,"substrate, HPLC",,"100 µM, 37 °C, upper limit if undegraded 24 h, together with: enzyme 1 µM",,degradation rate,0.17 ± 0.01 mol/min/mol enzyme
Clc1cc(-c2cc(Cl)c(Cl)c(Cl)c2Cl)c(Cl)c(Cl)c1Cl,Ryanodine receptor 1,[3H]ryanodine binding,"rainbow trout, skeletal muscle microsomes",,,EC20,11.4 µM
BIM,"MCL1 (Homo sapiens, UniProt Q07820)",bacterial surface display flow cytometry,,value is labelling concentration,,approximate KD,~0.001 µM
CC1(C)Cc2c(sc(NC(=O)c3ccn[nH]3)c2C(N)=O)C(C)(C)O1,"CFTR (Homo sapiens, UniProt P13569, F312A)","channel current, potentiator, inside-out patch clamp","CHO, transfected","20 µM, together with: ATP 2 mM",reference: initial current in ATP,current ratio,~1.3
CCc1nn2c(=O)cc(N3CCNCC3)nc2s1,"Integrin alpha-IIb/beta-3 (Homo sapiens, UniProt P05106+P08514)","activator, measured: fluorescent fibrinogen binding",human platelets,100 µM,reference: no agent,fibrinogen-binding platelets,8 ± 3%
CCOC(=O)c1ncn2c1CN(C)C(=O)c1cc(F)ccc1-2,"GABA-A receptor; alpha-1/beta-2/gamma-2 (Rattus norvegicus, UniProt P18508+P62813+P63138, R158C)","GABA-evoked current, antagonist, two-electrode voltage clamp",Xenopus oocytes,"1 µM, together with: flurazepam 10 µM or DMCM 1 µM",,modulation,decreased
Nc1ncnc2c1ncn2[C@@H]1O[C@@H]2COP(=O)(O)O[C@H]3[C@@H](F)[C@H](n4cnc5c(N)ncnc54)O[C@@H]3COP(=O)(O)O[C@H]2[C@H]1F,gdpP residues 84-659,"substrate, HPLC",,"100 µM, 37 °C, upper limit if undegraded 24 h, together with: enzyme 1 µM",,degradation rate,≤ 0.001 mol/min/mol enzyme
COC1=C(OC)C(=O)C(C)=CC1=O,"Type II NADH dehydrogenase (Plasmodium falciparum, UniProt Q8I302)","enzyme activity, substrate",,together with: co-substrate 500 µM,,kcat,0.333 ± 0.005 s⁻¹
Cc1ccc2nc(-c3ccc4nc(-c5ccc(NC(=O)c6cc(C(F)(F)F)cc(C(F)(F)F)c6)cc5)sc4c3)sc2c1S(=O)(=O)O.N,HCV genotype 1a NS3/NS4A protease M485A,"peptide cleavage, inhibitor",,,reference: wild type over M485A,Ki ratio,~5 fold
CC(C)C[C@H](NC(=O)[C@H](CCCCN)NC(=O)[C@H](CCCCN)NC(=O)CNC(=O)[C@H](CCCNC(=N)N)NC(=O)[C@@H](N)CCCNC(=N)N)C(=O)N[C@@H](CC(C)C)C(=O)N[C@@H](CC(C)C)C(=O)N[C@@H](CC(C)C)C(=O)N[C@@H](CC(C)C)C(=O)N[C@@H](CCCCN)C(=O)N[C@@H](CCCCN)C(=O)N[C@@H](CCCCN)C(=O)NCC(=O)O,"dnaK, ADP-bound (Escherichia coli, UniProt P0A6Y8)",native gel shift,,"50 µM, ADP-bound DnaK",,fraction client-bound,1.04 ± 0.04
Clc1cc(Cl)c(-c2cc(Cl)c(Cl)cc2Cl)cc1Cl,Ryanodine receptor 1,[3H]ryanodine binding,"rainbow trout, skeletal muscle microsomes",,,EC20,5.81 µM
CC(=O)N[C@H]1[C@H](OCCN)O[C@H](CO)[C@@H](O[C@@H]2O[C@H](CO)[C@H](O[C@H]3O[C@H](CO)[C@H](O)[C@H](O[C@@H]4O[C@H](CO)[C@H](O)[C@H](O)[C@H]4NC(C)=O)[C@H]3O)[C@H](O)[C@H]2O)[C@@H]1O,"Agglutinin (Sclerotinia sclerotiorum, UniProt A7XUK7)",glycan array,,"concentration not given, pH 7.4, room temperature",,lectin binding,16800 ± 1710 RFU
CCCCSS(C)(=O)=O,"Gabrg2/GABRB2/Gabra1 (Rattus norvegicus, UniProt P18508+P47870+P62813, C260A/C282A/C312A/C319A/C341A)",two-electrode voltage clamp,Xenopus oocytes,"0.5 mM, applied without GABA, together with: GABA EC10",reference: before labelling,GABA current change,no effect
Clc1ccc(-c2cc(Cl)c(Cl)cc2Cl)c(Cl)c1,Ryanodine receptor 1,[3H]ryanodine binding,"rainbow trout, skeletal muscle microsomes",,,EC20,15.5 µM
O=S1(=O)c2cc(N3CCN4CCC3CC4)ccc2-c2cccc([18F])c21,"CHRNA7 (Homo sapiens, UniProt P36544)",PET imaging radioligand,"human, high-binding brain regions",dose not given,,distribution volume,> 20 mL/mL
COc1ccc2c3c([nH]c2c1)[C@H](CC(C)C)N1C(=O)[C@H](CCC(=O)OC(C)(C)C)NC(=O)[C@@H]1C3,"Abcb1a (Mus musculus, UniProt P21447)","inhibitor, PET",wild-type mice,"i.v., 10 mg/kg, together with: (R)-[11C]verapamil",,brain (R)-[11C]verapamil concentration,increased
KQTARKSTGGWW (myristoyl-Lys9),"HDAC8 (Homo sapiens, UniProt Q9BY41)","substrate, HPLC",peptide,"1 µM, 1 h, pH 8, 37 °C",,kcat/Km,120 ± 11 M⁻¹ s⁻¹
C[C@H]1CCCC(=O)CCC/C=C/c2cc(O)cc(O)c2C(=O)O1,"zhd101 (Clonostachys rosea, UniProt Q8NKB0, E145K)","substrate, HPLC",,"10 min, pH 5.5, 37 °C, 1% acetonitrile",,Km,33.9 ± 3.53 mM
CC(C)Cc1ccc(NC(=O)Oc2ccc3c(c2)[C@]2(C)CCN[C@@H]2N3)cc1,"Cholinesterase (BCHE, Homo sapiens, UniProt P06276)","inhibitor, immobilized enzyme reactor, HPLC-UV",immobilized recombinant human enzyme,"concentration not given, flushing after complete inhibition",,time to full activity recovery,16 h
O=c1cc(-c2ccccc2)oc2cc(O)ccc12,"Cytochrome P450 1A1 (CYP1A1, Homo sapiens, UniProt P04798)","enzyme inactivation, mechanism-based inactivator, EROD",,together with: NADPH preincubation,,KI,2.43 µM
C=C(CC[C@@H](C)[C@H]1CC[C@H]2C3=C(C(=O)C[C@]12C)[C@@]1(C)CCC(=O)[C@@H](C)[C@@H]1CC3=O)[C@H](C)C(=O)O,"Peroxisome proliferator-activated receptor alpha (Rattus norvegicus, UniProt P37230)","reporter gene, agonist",CHO-K1,10 µM,,induction,2.5
CC(C)(NC(=O)c1nn(CCCCC(F)(F)F)c2ccccc12)c1cccc(C(N)=O)c1,CNR1,"calcium mobilization, agonist",CHO-K1 expressing Gαq16,,"reference: CP55,940 maximum",Emax,73 ± 4%
anthraquinone-neomycin,poly(dA)•2poly(dT) triplex DNA,isothermal titration calorimetry,,"concentration not given, pH 5.5, 20 °C, KCl 150 mM",,binding enthalpy,-6.4 ± 0.1 kcal/mol
berbamine,"Heat shock protein HSP 90-alpha, C-terminal domain (HSP90AA1, Homo sapiens, UniProt P07900)","binding, zonal affinity chromatography",,"pH 7.4, 25 °C",,retention time,30 min
DNRDGNVYYF,"Serine endoprotease DegS (degS, Escherichia coli, UniProt P0AEE3, D320A/H198P)",,peptide,"30 µM, 23 °C, enzyme 0.1 µM trimer, together with: saturating OMP peptide",,Hill coefficient,1.1 ± 0.1
CSc1cccc(CC(=O)N[C@H]2CCOC2=O)c1,"rhlR (Pseudomonas aeruginosa, UniProt P54292)","reporter gene, agonist",Escherichia coli reporter strain,100 µM,reference: BHL 900 µM,activation,70%
